Assay results from different studies.
Parts stem from different laboratories: compare values within a part only. Positions count from the first letter of the parent shown.
UniProt Q02763, sequence (whole entry, looked up): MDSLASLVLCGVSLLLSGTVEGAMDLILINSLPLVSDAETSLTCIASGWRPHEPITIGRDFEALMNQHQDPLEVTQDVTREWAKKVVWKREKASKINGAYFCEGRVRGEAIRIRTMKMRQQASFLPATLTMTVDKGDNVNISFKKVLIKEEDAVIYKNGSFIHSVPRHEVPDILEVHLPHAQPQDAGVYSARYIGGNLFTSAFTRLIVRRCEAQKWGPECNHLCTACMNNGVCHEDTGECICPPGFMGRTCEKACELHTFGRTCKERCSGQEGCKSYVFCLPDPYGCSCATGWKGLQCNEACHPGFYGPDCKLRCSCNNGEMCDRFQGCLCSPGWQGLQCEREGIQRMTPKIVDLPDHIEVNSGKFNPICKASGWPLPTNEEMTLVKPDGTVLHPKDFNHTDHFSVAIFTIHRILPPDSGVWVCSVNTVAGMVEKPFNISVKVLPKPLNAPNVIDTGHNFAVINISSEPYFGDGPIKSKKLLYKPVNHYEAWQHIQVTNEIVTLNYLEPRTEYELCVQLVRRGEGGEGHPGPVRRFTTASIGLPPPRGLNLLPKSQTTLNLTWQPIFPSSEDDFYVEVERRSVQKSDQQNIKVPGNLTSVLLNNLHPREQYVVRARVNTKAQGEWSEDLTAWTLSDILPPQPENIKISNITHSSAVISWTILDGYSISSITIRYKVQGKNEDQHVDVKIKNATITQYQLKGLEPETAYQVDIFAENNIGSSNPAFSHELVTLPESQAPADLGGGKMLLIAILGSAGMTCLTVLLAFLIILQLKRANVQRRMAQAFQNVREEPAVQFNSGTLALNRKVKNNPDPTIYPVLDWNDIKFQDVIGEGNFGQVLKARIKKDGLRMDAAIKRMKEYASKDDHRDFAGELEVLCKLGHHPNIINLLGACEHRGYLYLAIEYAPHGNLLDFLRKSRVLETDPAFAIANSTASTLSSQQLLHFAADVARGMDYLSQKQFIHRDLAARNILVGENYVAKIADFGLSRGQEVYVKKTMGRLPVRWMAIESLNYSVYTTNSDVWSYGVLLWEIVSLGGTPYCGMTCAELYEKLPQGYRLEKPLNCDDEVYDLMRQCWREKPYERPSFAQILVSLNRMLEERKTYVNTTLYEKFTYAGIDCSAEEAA
UniProt Q9UHD2, sequence (whole entry, looked up): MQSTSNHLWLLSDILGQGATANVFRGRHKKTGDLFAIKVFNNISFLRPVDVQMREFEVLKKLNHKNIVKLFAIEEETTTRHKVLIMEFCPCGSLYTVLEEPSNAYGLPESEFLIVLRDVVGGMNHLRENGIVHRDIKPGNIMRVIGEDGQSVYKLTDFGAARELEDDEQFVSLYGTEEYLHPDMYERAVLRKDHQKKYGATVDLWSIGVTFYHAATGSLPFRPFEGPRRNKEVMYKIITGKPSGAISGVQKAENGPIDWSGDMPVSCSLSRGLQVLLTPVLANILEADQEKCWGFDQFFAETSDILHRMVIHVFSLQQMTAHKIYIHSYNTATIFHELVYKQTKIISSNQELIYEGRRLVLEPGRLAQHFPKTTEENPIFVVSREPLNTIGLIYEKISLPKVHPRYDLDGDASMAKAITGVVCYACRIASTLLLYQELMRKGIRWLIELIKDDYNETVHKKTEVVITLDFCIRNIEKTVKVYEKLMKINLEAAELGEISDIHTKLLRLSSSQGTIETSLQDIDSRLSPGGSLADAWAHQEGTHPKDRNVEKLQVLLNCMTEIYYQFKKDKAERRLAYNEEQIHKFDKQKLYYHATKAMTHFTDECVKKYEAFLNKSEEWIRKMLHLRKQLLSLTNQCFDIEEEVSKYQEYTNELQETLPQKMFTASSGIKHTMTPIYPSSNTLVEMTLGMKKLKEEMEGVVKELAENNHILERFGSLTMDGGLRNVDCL
UniProt P49841, sequence (whole entry, looked up): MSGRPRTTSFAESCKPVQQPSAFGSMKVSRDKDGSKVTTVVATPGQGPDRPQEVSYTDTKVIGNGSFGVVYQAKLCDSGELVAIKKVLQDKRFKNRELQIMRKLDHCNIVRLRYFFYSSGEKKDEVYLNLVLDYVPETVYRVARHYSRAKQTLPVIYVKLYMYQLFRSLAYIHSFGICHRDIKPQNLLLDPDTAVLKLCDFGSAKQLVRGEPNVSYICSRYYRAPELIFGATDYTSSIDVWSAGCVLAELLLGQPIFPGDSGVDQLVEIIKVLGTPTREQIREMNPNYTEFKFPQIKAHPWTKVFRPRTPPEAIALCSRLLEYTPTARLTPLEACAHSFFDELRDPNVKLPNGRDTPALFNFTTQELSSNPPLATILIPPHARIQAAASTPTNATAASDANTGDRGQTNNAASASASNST
UniProt P06239, sequence (whole entry, looked up): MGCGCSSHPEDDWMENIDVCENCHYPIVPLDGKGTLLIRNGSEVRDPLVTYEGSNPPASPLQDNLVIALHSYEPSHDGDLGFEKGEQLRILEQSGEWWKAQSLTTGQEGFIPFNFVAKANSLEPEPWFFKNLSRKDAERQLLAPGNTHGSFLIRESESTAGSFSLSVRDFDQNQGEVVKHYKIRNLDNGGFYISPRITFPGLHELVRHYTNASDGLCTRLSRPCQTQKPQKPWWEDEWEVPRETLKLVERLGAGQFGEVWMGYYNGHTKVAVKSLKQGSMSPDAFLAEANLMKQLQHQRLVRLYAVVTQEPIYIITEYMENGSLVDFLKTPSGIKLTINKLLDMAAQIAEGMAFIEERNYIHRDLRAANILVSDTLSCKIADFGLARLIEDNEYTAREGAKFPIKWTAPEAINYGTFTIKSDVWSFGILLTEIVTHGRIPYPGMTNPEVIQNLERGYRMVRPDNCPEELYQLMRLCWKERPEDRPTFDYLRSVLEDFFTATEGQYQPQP
UniProt P22607, sequence (whole entry, looked up): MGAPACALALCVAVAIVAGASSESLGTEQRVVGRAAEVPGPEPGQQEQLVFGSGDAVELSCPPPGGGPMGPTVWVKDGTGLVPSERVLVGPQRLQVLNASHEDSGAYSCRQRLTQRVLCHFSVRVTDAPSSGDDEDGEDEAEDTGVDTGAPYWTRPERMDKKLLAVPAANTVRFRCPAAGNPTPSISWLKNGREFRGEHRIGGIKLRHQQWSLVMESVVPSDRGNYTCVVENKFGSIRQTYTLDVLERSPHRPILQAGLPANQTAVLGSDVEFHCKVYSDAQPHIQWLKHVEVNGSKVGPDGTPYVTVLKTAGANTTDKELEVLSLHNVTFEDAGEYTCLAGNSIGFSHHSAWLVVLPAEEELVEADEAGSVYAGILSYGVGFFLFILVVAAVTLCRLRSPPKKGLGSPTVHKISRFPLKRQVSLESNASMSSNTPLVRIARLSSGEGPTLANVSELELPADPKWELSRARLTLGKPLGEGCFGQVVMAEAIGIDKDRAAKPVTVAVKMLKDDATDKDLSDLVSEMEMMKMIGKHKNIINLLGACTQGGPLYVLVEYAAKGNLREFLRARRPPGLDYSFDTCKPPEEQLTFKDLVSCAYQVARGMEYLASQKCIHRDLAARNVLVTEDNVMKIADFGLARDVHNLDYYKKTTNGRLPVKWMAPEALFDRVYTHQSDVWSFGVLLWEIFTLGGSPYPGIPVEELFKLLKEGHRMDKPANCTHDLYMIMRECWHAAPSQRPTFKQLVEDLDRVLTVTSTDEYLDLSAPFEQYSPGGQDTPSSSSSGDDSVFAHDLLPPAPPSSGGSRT
UniProt P36896, sequence (whole entry, looked up): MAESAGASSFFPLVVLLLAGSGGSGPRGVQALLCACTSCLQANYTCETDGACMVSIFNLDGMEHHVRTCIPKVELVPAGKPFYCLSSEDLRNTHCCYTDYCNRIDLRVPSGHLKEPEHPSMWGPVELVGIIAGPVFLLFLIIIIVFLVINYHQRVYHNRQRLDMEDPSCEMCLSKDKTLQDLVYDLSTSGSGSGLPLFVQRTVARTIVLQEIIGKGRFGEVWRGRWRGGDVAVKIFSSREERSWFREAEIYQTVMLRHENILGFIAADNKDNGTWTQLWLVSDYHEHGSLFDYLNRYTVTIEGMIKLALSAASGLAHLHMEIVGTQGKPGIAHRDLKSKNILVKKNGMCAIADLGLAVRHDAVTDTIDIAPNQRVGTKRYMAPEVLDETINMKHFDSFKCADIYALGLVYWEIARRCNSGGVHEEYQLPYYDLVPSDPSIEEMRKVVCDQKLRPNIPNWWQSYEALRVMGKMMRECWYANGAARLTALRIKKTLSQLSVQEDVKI
UniProt Q99558, sequence (whole entry, looked up): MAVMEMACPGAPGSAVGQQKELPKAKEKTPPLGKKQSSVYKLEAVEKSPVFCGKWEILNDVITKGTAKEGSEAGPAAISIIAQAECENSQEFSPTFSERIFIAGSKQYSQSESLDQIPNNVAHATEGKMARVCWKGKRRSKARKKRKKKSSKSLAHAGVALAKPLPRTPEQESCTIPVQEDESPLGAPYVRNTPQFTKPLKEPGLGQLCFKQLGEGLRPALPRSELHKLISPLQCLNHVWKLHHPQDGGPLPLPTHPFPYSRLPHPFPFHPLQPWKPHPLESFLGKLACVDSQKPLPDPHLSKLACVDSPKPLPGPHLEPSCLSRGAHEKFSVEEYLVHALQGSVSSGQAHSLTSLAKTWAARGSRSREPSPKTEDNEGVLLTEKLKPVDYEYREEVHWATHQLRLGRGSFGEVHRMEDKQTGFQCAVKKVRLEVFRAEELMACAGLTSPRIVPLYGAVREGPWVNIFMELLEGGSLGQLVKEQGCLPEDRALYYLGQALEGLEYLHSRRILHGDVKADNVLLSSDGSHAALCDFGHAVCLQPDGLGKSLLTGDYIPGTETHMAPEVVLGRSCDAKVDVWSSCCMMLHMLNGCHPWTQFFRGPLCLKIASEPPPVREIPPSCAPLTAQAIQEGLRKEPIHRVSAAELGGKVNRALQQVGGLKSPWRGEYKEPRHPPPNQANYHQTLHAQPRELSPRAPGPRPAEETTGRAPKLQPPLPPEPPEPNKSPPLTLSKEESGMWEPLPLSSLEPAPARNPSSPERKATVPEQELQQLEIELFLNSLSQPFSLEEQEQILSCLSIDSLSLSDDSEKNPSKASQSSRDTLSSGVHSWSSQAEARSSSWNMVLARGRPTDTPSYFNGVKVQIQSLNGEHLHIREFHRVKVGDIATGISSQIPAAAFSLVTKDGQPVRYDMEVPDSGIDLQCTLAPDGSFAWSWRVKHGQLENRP

Series 1
Structure (SMILES): O=C1NC(=O)c2c1c1c3ccccc3[nH]c1n1cncc21
Read-out: enzyme activity
Action: inhibitor
Tested at: 0.5 µM
Reference: control
The remaining activity was 83% (MAP3K14 (Homo sapiens, UniProt Q99558)).
For NEK1 (Homo sapiens, UniProt Q96PY6): remaining activity read 75.2%.
It gave 96.2% for remaining activity (GRK7 (Homo sapiens, UniProt Q8WTQ7)).
MAP2K2 (Homo sapiens, UniProt P36507) — remaining activity: 85.9%.
It gave 97.8% for remaining activity (MAP3K5 (Homo sapiens, UniProt Q99683)).
The remaining activity was 81.9% (TBK1 (Homo sapiens, UniProt Q9UHD2)).
It gave 30.8% for remaining activity (GSK3B (Homo sapiens, UniProt P49841)).
LCK (Homo sapiens, UniProt P06239) — remaining activity: 87.1%.
The remaining activity was 103% (ACVR1B (Homo sapiens, UniProt P36896)).
TEK (Homo sapiens, UniProt Q02763) — remaining activity: 78.9%.
MAPK3 (Homo sapiens, UniProt P27361) — remaining activity: 87.8%.
CSNK1G3 (Homo sapiens, UniProt Q9Y6M4) — remaining activity: 87%.
FGFR3 (Homo sapiens, UniProt P22607) — remaining activity: 85%.
For CSNK1G2 (Homo sapiens, UniProt P78368): remaining activity read 63.4%.

Series 2
Compound: COc1ccc2c(O[C@@H]3C[C@H]4C(=O)N[C@]5(C(=O)O)CC5/C=C\CCCCC[C@H](NC(=O)OC5CCCC5)C(=O)N4C3)cc(-c3csc(NC(=O)C(C)C)n3)nc2c1C (some centres unmarked)
Read-out: cell-free assay
Technique: competition with immobilised ligand
Tested at: 1 µM
For EPHB3 (Homo sapiens, UniProt P54753): remaining binding read 100%.
It gave 100% for remaining binding (CHEK1 (Homo sapiens, UniProt O14757)).
PIK3CA (Homo sapiens, UniProt P42336, E545A) — remaining binding: 100%.
For RET (Homo sapiens, UniProt P07949, V804M): remaining binding read 96%.
The remaining binding was 88% (PNCK (Homo sapiens, UniProt Q6P2M8)).

Series 3
Target: Phosphate system positive regulatory protein PHO4, full length, GST-tagged (PHO4, Saccharomyces cerevisiae, UniProt P07270, residues 1-312)
Technique: competition protein-binding microarray
Form: double-stranded DNA, one strand shown
Matrix: in vitro
Tested at: 2 µM
Notes: whole 60-bp probe, lowest competitor level
Together with: Cbf1 competitor, 0.05 µM
Direction: higher = stronger binding
All sequences stand within: … GTCTTGATTCGCTTGACGCTGCTG
Target sequence (chain): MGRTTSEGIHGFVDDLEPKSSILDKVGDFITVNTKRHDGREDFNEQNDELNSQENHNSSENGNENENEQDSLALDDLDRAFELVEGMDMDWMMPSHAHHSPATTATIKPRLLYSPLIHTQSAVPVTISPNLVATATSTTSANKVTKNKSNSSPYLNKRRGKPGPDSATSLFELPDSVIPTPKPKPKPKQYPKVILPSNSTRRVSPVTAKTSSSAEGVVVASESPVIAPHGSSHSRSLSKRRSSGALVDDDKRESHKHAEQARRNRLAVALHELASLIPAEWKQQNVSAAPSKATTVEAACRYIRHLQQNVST
The fluorescence intensity of `TATTTTTTTAAGCAGAACGTGCTTTGCTCTCCCTTT` is reported as 13400 a.u.
The fluorescence intensity of `GAATTTTTTCGAATTAGCGTGCTTTCACTGCTTGCA` is reported as 5520 a.u.
For `CGGGGTTAAGTTTTTCACGTGGGATGCTTGCAGCAG`, the fluorescence intensity was 13300 a.u.
With `TAATAGGCCTGCTGGCACGTTGTTGAATGGCAGATG` the fluorescence intensity was 13600 a.u.
`CAATGAAAGTGAAAGCACGTGTCGGATTGTCAACAA` has a fluorescence intensity of 19700 a.u.
`GTCTTGTCTCATTGTCACCCTACTTTCCCCACTTCA` has a fluorescence intensity of 5100 a.u.
`AGACAAGGCAACAAAGAAATGTCGTTTTTAATTTTT` has a fluorescence intensity of 3670 a.u.
`TCTCTTTATTAATTACACGTGGTGATGACTCATTGG` has a fluorescence intensity of 19900 a.u.

Series 4
Target: CEBPA, bZIP domain (human)
Technique: DHFR protein complementation
Matrix: yeast
Notes: single substitutions, most at no-binding floor
Reference: wild-type JUN-FOS pair
Direction: higher = stronger binding
Starting sequence: JUN, bZIP domain (human); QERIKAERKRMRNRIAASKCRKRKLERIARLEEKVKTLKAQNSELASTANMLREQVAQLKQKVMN; partner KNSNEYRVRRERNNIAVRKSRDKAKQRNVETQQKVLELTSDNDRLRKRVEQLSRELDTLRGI
`L52H` gave a binding fitness of -1.49 natural log.
With `S43T` the binding fitness was -1.41 natural log.
With `L38Q` the binding fitness was -1.58 natural log.
`Q41T` gave a binding fitness of -1.51 natural log.
`S43G` has a binding fitness of -1.45 natural log.
With `S43L` the binding fitness was -1.42 natural log.
`A46L` has a binding fitness of -1.45 natural log.
For `E54R`, the binding fitness was -1.36 natural log.

For quick reference, copied from above (series 1):
TEK (Homo sapiens, UniProt Q02763) — remaining activity: 78.9%.
It gave 30.8% for remaining activity (GSK3B (Homo sapiens, UniProt P49841)).
MAP2K2 (Homo sapiens, UniProt P36507) — remaining activity: 85.9%.
MAPK3 (Homo sapiens, UniProt P27361) — remaining activity: 87.8%.
The remaining activity was 83% (MAP3K14 (Homo sapiens, UniProt Q99558)).
